Results gathered from unrelated publications.
Compare with care: the assays were run in different laboratories. ± gives the spread as reported.
CNR1: Cannabinoid receptor 1 (CNR1, Homo sapiens, UniProt P21554)
Chain of UniProt P21554 (whole entry, looked up): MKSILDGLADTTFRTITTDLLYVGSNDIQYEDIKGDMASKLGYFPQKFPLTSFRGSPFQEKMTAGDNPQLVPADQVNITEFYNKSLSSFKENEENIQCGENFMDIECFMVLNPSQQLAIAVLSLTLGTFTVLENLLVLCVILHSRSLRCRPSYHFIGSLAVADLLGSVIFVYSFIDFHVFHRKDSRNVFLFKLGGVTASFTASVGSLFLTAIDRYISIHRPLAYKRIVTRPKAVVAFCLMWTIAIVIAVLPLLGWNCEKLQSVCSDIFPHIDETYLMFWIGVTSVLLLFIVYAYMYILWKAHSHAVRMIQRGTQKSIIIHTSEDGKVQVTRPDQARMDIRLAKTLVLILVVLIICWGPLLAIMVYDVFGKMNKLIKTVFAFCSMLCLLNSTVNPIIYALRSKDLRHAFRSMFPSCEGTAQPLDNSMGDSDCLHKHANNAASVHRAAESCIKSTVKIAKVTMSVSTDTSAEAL
GLP1R: Glucagon-like peptide 1 receptor (GLP1R, Homo sapiens, UniProt P43220)
Chain of UniProt P43220 (whole entry, looked up): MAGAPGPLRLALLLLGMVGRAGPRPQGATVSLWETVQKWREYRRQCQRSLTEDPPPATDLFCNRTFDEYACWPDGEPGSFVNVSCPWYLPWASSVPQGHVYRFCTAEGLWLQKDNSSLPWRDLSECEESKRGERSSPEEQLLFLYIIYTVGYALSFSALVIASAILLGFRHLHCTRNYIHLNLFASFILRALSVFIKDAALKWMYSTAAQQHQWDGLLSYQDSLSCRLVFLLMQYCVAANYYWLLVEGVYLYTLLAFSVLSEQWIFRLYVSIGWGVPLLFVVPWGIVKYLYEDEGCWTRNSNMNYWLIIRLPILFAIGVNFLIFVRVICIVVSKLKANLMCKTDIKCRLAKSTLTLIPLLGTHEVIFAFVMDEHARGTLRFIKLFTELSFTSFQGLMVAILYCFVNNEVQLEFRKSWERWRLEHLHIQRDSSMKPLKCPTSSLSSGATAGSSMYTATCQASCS
Fsr quorum sensing protein: Fsr quorum sensing protein (Enterococcus faecalis, UniProt A0ACD6TCR9)
Chain of UniProt Q9GZQ4 (whole entry, looked up): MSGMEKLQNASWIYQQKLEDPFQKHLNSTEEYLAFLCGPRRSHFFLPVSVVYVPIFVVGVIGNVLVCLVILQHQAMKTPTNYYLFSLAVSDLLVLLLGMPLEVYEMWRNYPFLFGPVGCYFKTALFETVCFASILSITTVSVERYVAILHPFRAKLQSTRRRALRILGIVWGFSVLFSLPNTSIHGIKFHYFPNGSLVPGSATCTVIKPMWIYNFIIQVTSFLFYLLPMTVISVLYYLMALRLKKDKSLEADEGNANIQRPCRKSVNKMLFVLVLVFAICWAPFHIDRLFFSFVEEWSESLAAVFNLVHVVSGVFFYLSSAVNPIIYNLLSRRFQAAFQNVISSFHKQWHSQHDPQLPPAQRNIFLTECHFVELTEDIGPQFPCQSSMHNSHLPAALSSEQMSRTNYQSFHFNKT
Chain of UniProt Q9UKP6 (whole entry, looked up): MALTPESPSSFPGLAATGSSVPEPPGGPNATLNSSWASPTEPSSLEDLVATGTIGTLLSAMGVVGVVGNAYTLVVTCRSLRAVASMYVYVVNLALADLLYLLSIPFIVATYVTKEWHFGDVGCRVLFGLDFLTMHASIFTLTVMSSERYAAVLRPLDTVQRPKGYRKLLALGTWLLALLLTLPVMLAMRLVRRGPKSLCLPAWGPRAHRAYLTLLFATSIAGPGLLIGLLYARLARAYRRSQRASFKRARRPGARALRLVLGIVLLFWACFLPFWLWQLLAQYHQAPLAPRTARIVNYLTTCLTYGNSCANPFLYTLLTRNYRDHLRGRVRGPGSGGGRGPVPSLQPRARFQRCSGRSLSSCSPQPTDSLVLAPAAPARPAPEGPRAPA
Chain of UniProt Q704Y3 (whole entry, unmodified, looked up): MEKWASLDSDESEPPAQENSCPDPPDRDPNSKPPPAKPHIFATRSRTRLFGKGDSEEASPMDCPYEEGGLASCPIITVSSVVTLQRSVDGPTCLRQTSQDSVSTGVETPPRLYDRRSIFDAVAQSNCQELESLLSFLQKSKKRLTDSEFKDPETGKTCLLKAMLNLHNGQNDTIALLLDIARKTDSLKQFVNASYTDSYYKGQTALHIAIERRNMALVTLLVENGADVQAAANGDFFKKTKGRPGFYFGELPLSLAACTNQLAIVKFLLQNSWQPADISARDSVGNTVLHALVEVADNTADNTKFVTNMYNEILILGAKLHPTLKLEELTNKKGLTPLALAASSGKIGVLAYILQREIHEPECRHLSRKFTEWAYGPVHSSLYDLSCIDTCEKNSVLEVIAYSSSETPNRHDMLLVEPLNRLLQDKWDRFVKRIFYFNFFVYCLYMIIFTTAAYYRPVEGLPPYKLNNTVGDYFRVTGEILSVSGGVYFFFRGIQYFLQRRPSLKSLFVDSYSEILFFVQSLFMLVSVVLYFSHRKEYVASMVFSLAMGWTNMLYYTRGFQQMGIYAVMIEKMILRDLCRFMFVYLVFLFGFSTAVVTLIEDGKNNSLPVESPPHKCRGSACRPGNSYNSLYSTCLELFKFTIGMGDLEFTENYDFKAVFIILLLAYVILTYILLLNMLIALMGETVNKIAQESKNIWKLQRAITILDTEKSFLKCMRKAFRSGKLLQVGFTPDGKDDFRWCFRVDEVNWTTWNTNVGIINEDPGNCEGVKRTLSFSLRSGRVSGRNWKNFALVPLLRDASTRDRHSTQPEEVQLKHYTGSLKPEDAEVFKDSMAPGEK
Chain of UniProt P02708 (whole entry, looked up): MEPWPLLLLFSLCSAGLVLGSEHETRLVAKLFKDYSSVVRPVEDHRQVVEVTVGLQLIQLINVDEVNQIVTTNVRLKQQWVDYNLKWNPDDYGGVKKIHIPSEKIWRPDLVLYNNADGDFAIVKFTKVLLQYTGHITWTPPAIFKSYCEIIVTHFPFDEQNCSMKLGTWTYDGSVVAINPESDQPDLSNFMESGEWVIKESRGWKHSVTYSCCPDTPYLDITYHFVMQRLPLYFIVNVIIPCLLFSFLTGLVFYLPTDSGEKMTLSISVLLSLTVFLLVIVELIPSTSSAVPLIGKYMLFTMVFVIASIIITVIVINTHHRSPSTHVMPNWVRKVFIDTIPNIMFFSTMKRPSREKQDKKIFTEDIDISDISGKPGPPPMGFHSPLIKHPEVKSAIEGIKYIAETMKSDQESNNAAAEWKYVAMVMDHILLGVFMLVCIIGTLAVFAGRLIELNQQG
Chain of UniProt P33032 (whole entry, looked up): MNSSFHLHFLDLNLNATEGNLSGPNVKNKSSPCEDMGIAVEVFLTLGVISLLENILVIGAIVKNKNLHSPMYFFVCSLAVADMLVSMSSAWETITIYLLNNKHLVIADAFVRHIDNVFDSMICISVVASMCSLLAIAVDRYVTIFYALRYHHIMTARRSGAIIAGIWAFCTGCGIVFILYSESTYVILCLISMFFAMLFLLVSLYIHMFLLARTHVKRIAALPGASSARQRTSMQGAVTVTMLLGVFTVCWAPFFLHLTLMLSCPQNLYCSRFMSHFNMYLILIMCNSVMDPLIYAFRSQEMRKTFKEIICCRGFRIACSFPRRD
Chain of UniProt Q07001 (whole entry, looked up): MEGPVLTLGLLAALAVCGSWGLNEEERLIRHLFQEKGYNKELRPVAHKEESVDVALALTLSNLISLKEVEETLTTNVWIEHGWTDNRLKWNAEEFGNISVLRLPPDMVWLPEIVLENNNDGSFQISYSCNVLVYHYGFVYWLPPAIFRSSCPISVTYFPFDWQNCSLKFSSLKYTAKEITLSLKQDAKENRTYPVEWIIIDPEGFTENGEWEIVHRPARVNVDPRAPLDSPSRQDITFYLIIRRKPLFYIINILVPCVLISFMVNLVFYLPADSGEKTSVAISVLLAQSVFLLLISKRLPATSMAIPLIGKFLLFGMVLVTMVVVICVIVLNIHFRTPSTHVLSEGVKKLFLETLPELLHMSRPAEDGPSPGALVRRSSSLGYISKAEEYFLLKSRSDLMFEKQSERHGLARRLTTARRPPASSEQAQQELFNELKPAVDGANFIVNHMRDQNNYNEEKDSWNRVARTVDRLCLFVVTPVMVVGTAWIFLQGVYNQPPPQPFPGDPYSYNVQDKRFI
Chain of UniProt Q8TDU6 (whole entry, looked up): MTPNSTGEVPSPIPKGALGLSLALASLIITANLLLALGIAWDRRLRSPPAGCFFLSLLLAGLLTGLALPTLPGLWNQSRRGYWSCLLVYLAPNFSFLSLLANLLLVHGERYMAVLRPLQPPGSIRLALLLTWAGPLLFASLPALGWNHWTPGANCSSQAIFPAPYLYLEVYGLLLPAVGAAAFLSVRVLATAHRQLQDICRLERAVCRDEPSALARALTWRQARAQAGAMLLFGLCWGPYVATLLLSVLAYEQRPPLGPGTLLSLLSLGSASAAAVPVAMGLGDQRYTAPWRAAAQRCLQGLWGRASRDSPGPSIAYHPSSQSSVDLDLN

CCCCCn1ccc(C(=O)NC(C)(C)c2ccc(NS(C)(=O)=O)cc2)n1  EC50 (CNR1; calcium signal, agonist): > 10000 nM
CC(=O)N[C@@H](Cc1c[nH]cn1)C(=O)N[C@@H](C)C(=O)N[C@@H](CCC(=O)O)C(=O)NCC(=O)N[C@H](C(=O)N[C@@H](Cc1ccccc1)C(=O)N[C@H](C(=O)N[C@@H](CO)C(=O)N[C@@H](CC(=O)O)C(=O)N[C@H](C(=O)N[C@@H](CO)C(=O)N[C@@H](CO)C(=O)N[C@@H](Cc1ccc(O)cc1)C(=O)N[C@@H](CC(C)C)C(=O)N[C@@H](CCC(=O)O)C(=O)NCC(=O)N[C@@H](CCC(N)=O)C(=O)N[C@@H](C)C(=O)N[C@@H](C)CN(CC(=O)N[C@@H](CCC(=O)O)C(=O)N[C@@H](Cc1ccccc1)CN(CC(=O)N[C@@H](C)C(=O)N[C@@H](Cc1c[nH]c2ccccc12)CN(CC(=O)N[C@H](C(=O)N[C@@H](CCCCN)CN(CC(=O)N[C@@H](CCCNC(=N)N)C(=O)N[C@@H](CCCCN)CN(CC(N)=O)S(C)(=O)=O)S(C)(=O)=O)C(C)C)S(=O)(=O)CC(C)C)S(=O)(=O)CC(C)C)S(=O)(=O)CCN)C(C)C)[C@@H](C)O)[C@@H](C)O  EC50 (GLP1R; reporter gene, agonist, luciferase): > 1000 nM
CCCCCn1ccc(C(=O)NC(C)(C)c2ccccc2)n1  EC50 (CNR1; calcium signal, agonist): 126 nM
CCCCCCCCCCCCCCCCCC(=O)NC[C@H]1CC[C@H](C(=O)N[C@@H](CCC(=O)NCCCOCCOCCOCCCNC(=O)COCC(=O)N[C@@H](Cc2ccc(O)cc2)C(=O)NC(C)(Cc2ccccc2)C(=O)N[C@@H](CC(C)C)C(=O)N[C@@H](CCCC)C(=O)N[C@@H](CCCNC(=N)N)C(=O)N2CCC[C@H]2C(=O)N[C@@H](CCCNC(=N)NC)C(=O)N[C@@H](CC(N)=O)C(N)=O)C(=O)O)CC1 (some centres unmarked)  EC50 (NMUR2 (Homo sapiens, UniProt Q9GZQ4); beta-arrestin recruitment, agonist, PathHunter luminescence; CHO-K1; 90 min, 37 °C): 6.9 nM
CC(C)[C@H](NC(=O)[C@@H]1CSSC(C)(C)[C@H](NC(=O)[C@@H](N)CC(=O)O)C(=O)N[C@@H](Cc2ccccc2)C(=O)N[C@@H](Cc2c[nH]c3ccccc23)C(=O)N[C@@H](CCCCN)C(=O)N[C@@H](Cc2ccc(O)cc2)C(=O)N1)C(=O)O  EC50 (UTS2R (Homo sapiens, UniProt Q9UKP6); inositol phosphate, agonist, TR-FRET): 0.631 nM
CC[C@H](C)[C@@H]1NC(=O)CN(CC(N)=O)C(=O)[C@@H]2CCCN2C(=O)[C@@H](NC(=O)[C@H](CC(N)=O)NC(=O)[C@@H](N)CCC(N)=O)COC(=O)[C@H](CCSC)NC(=O)[C@H](Cc2c[nH]c3ccccc23)NC(=O)[C@H](CCC(N)=O)NC(=O)CNC(=O)[C@H](Cc2ccccc2)NC1=O  EC50 (Fsr quorum sensing protein; Fsr quorum sensing, agonist, β-galactosidase reporter): > 10000 nM
O=C(O)CCn1c(=O)oc2cc(Cl)c(Cl)cc21  EC50 (CHRNA1/Acetylcholine receptor subunit delta (Homo sapiens, UniProt P02708+Q07001); opener; median): > 50100 nM
CC(=O)Nc1ccc(C(C)(C)NC(=O)c2ccn(Cc3ccc(Cl)cc3)n2)c(Cl)c1  EC50 (CNR1; calcium signal, agonist): 1470 nM
CCCCC/C=C\C/C=C\C/C=C\C/C=C\CCCC(=O)NCCc1ccc(O)c(O)c1  EC50 (Trpv1 (Mus musculus, UniProt Q704Y3, S513A); ion current, agonist, whole-cell patch clamp; 24 °C, +80 mV): 90 ± 20 nM
CC[C@H](C)[C@H](NC(=O)[C@H](Cc1ccccc1)NC(=O)[C@H](CCC(=O)O)NC(=O)[C@H](CCCNC(=N)N)NC(=O)[C@@H](NC(=O)[C@H](C)NC(=O)[C@H](CCC(=O)O)NC(=O)[C@H](CCC(=O)O)NC(=O)[C@H](CCC(=O)O)NC(=O)[C@H](CC(C)C)NC(=O)[C@H](Cc1ccc(O)cc1)NC(=O)[C@H](CCCCN)NC(=O)[C@H](CO)NC(=O)[C@H](CC(C)C)NC(=O)[C@H](CC(=O)O)NC(=O)[C@H](CO)NC(=O)[C@@H](NC(=O)[C@H](Cc1ccccc1)NC(=O)[C@@H](NC(=O)CNC(=O)[C@H](CCC(N)=O)NC(=O)[C@@H](CO)NC(=O)[C@@H](N)Cc1c[nH]cn1)[C@@H](C)O)[C@@H](C)O)C(C)C)C(=O)N[C@@H](C)C(=O)N[C@@H](Cc1c[nH]c2ccccc12)C(=O)N[C@@H](CC(C)C)C(=O)N[C@@H](CCCCN)C(=O)N[C@@H](CC(N)=O)C(=O)NCC(=O)NCC(=O)N1CCC[C@H]1C(=O)N[C@@H](CO)C(=O)N[C@@H](Cc1ccc(O)cc1)C(=O)N[C@@H](CO)C(=O)N[C@@H](CCSC)C(=O)N[C@@H](CCC(=O)O)C(=O)N[C@@H](Cc1c[nH]cn1)C(=O)N[C@@H](Cc1ccccc1)C(=O)N[C@@H](CCCNC(=N)N)C(=O)N[C@@H](Cc1c[nH]c2ccccc12)C(=O)NCC(=O)N[C@@H](CCCCN)C(=O)N1CCC[C@H]1C(=O)N[C@H](C(N)=O)C(C)C  EC50 (MC5R (Homo sapiens, UniProt P33032); cAMP, agonist, TR-FRET): 274 nM
CCCCCn1ccc(C(=O)NC(C)(C)c2ccc(CNC(C)=O)cc2)n1  EC50 (CNR1; β-arrestin recruitment, agonist): 186 nM
CC[C@H](C)[C@@H]1NC(=O)[C@H](CC(N)=O)NC(=O)[C@@H]2CCCN2C(=O)[C@@H](NC(=O)[C@H](CC(N)=O)NC(=O)[C@@H](N)CCC(N)=O)COC(=O)[C@H](CCSC)NC(=O)[C@H](Cc2c[nH]c3ccccc23)NC(=O)CN(CCC(N)=O)C(=O)CNC(=O)[C@H](Cc2ccccc2)NC1=O  EC50 (Fsr quorum sensing protein; Fsr quorum sensing, agonist, β-galactosidase reporter): > 10000 nM
CCN(Cc1ccccc1)C(=O)CCc1nc(CN2CCN(C(=O)Cc3ccc(OC)c(OC)c3)CC2)no1  EC50 (Sodium channel protein type 11 subunit alpha (Scn11a, Rattus norvegicus, UniProt O88457); inactivation V1/2 shift, activator, whole-cell patch clamp; rat DRG neurons, NaV1.9 current): 499 ± 87.4 nM
CC(CCC(=O)O)C1CCC2C3C(O)CC4CC(OS(=O)(=O)O)CCC4(C)C3CC(O)C12C (centres unmarked)  EC50 (GPBAR1 (Homo sapiens, UniProt Q8TDU6); agonist): > 200000 nM
CC[C@H](C)[C@H](NC(=O)[C@H](Cc1ccccc1)NC(=O)[C@H](CCC(=O)O)NC(=O)[C@H](CCCCN)NC(=O)[C@H](C)NC(=O)[C@H](C)NC(=O)[C@H](CCC(N)=O)NC(=O)CNC(=O)[C@H](CCC(=O)O)NC(=O)[C@H](CC(C)C)NC(=O)[C@H](Cc1ccc(O)cc1)NC(=O)[C@H](CO)NC(=O)[C@H](CO)NC(=O)[C@@H](NC(=O)[C@H](CC(=O)O)NC(=O)[C@H](CO)NC(=O)[C@@H](NC(=O)[C@H](Cc1ccccc1)NC(=O)[C@@H](NC(=O)CNC(=O)[C@H](CCC(=O)O)NC(=O)[C@H](C)NC(=O)[C@H](Cc1c[nH]cn1)NCC(F)(F)C(F)(F)C(F)(F)F)[C@@H](C)O)[C@@H](C)O)C(C)C)C(=O)N[C@@H](C)C(=O)N[C@@H](Cc1c[nH]c2ccccc12)C(=O)N[C@@H](CC(C)C)C(=O)N[C@H](C(=O)N[C@@H](CCCCN)C(=O)NCC(=O)N[C@@H](CCCNC(=N)N)C(N)=O)C(C)C  EC50 (GLP1R; reporter gene, agonist, luciferase): 0.001 nM
CC[C@H](C)[C@H]1C(=O)N(Cc2cc3ccccc3c3ccccc23)C[C@@H]2N(C(=O)NCCCC(F)(F)F)CCC(=O)N12  EC50 (clpP (Staphylococcus aureus, UniProt Q2G036, H83Y); activator): 1900 ± 300 nM
CC[C@H](C)[C@H](NC(=O)[C@H](Cc1ccccc1)NC(=O)[C@H](CCC(=O)O)NC(=O)[C@H](CCCCN)NC(=O)[C@H](C)NC(=O)[C@H](C)NC(=O)[C@H](CCC(N)=O)NC(=O)CNC(=O)[C@H](CCC(=O)O)NC(=O)[C@H](CC(C)C)NC(=O)[C@H](Cc1ccc(O)cc1)NC(=O)[C@H](CO)NC(=O)[C@H](CO)NC(=O)[C@@H](NC(=O)[C@H](CC(=O)O)NC(=O)[C@H](CO)NC(=O)[C@@H](NC(=O)[C@H](Cc1ccccc1)NC(=O)[C@@H](NC(=O)CNC(=O)[C@H](CCC(=O)O)NC(=O)[C@H](C)NC(=O)[C@@H](N)Cc1c[nH]cn1)[C@@H](C)O)[C@@H](C)O)C(C)C)C(=O)N[C@@H](C)C(=O)N[C@@H](Cc1c[nH]c2ccccc12)C(=O)N[C@@H](CC(C)C)C(=O)N[C@H](C(=O)N[C@@H](CCCCN)CN(CC(=O)N[C@@H](CCCNC(=N)N)C(=O)N[C@@H](CCCCN)CN(CC(N)=O)S(C)(=O)=O)S(C)(=O)=O)C(C)C  EC50 (GLP1R; reporter gene, agonist, luciferase): 3.85 nM
CCCCCn1ccc(C(=O)N[C@H](C)c2ccccc2)n1  EC50 (CNR1; calcium signal, agonist): > 10000 nM
O=C1NC2(CC2)COc2ncc(F)cc2[C@H]2COCCN2c2ccn3ncc1c3n2  body weight (Sprague-Dawley rat, male; oral, 2.5 mg/kg/day, end of recovery, 4-week repeated-dose toxicity): 523 ± 41.7 g
CC[C@H](C)[C@H](NC(=O)[C@H](Cc1ccccc1)NC(=O)[C@H](CCC(=O)O)NC(=O)[C@H](CCCCN)NC(=O)[C@H](C)NC(=O)[C@H](C)NC(=O)[C@H](CCC(N)=O)NC(=O)CNC(=O)[C@H](CCC(=O)O)NC(=O)[C@H](CC(C)C)NC(=O)[C@H](Cc1ccc(O)cc1)NC(=O)[C@H](CO)NC(=O)[C@H](CO)NC(=O)[C@@H](NC(=O)[C@H](CC(=O)O)NC(=O)[C@H](CO)NC(=O)[C@@H](NC(=O)[C@H](Cc1ccccc1)NC(=O)[C@@H](NC(=O)CNC(=O)[C@H](CCC(=O)O)NC(=O)C(C)(C)NC(=O)[C@H](Cc1c[nH]cn1)NC(C)=O)[C@@H](C)O)[C@@H](C)O)C(C)C)C(=O)N[C@@H](C)C(=O)N[C@@H](Cc1c[nH]c2ccccc12)C(=O)N[C@@H](CC(C)C)C(=O)N[C@H](C(=O)N[C@@H](CCCCN)CN(CC(=O)N[C@@H](CCCNC(=N)N)C(=O)N[C@@H](CCCCN)CN(CC(N)=O)S(C)(=O)=O)S(C)(=O)=O)C(C)C  EC50 (GLP1R; reporter gene, agonist, luciferase): 0.44 nM

A few entries again:
CCCCCn1ccc(C(=O)N[C@H](C)c2ccccc2)n1  EC50 (CNR1; calcium signal, agonist): > 10000 nM
CCCCCn1ccc(C(=O)NC(C)(C)c2ccc(CNC(C)=O)cc2)n1  EC50 (CNR1; β-arrestin recruitment, agonist): 186 nM
CC(C)[C@H](NC(=O)[C@@H]1CSSC(C)(C)[C@H](NC(=O)[C@@H](N)CC(=O)O)C(=O)N[C@@H](Cc2ccccc2)C(=O)N[C@@H](Cc2c[nH]c3ccccc23)C(=O)N[C@@H](CCCCN)C(=O)N[C@@H](Cc2ccc(O)cc2)C(=O)N1)C(=O)O  EC50 (UTS2R (Homo sapiens, UniProt Q9UKP6); inositol phosphate, agonist, TR-FRET): 0.631 nM
